Published values collected from several papers.
Each line is one published result; not all experiments were run side by side. ± gives the spread as reported.

Structure (SMILES) = CC(C)C[C@H](NC(=O)OCc1ccccc1)C(=O)N[C@@H](C[C@@H]1CCNC1=O)C(O)S(=O)(=O)O (stereo partly shown); cell line = RD; setting = 3 (unit not given), 37 °C; CC50 = > 50 µM
Structure (SMILES) = C=C1C(=O)O[C@@H]2C[C@H](C)[C@@H]3C[C@H](O[Si](c4ccccc4)(c4ccccc4)C(C)(C)C)[C@H](O)[C@@]3(C)C[C@H]12; cell line = mouse Splenocyte; assay = cell growth or viability, flow cytometry; test system = BALB/c; setting = 48 h; CC50 = 143 µM
Structure (SMILES) = CCN(CC)CCCC(C)Nc1c2cc(Cl)ccc2nc2ccc(Cl)cc12 (stereo not shown); cell line = U2OS ACE2-GFP; setting = 20 (unit not given); CC50 = 4.41 µM
Structure (SMILES) = COc1ccc(CNC(=O)C(NC(=O)C2CC2c2cc(C)cc(C)c2)c2ccc(C)c(C)c2)c(OC)c1 (mixture of isomers); cell line = BHK-21; assay = cell growth or viability, MTT; setting = 24 h; CC50 = > 100 µM
Structure (SMILES) = CCCCCCC(=O)CCCCCC/C=C/C[C@@H](O)[C@H](O)[C@@](N)(CO)C(=O)O; cell line = VeroE6/TMPRSS2; assay = cell growth or viability; setting = 72 h; CC50 = > 20 µM
Structure (SMILES) = CC(=O)CCC1C(=O)NC(C(C)C)C(=O)NC(Cc2cccc(O)c2)C(=O)N2CCCC(N2)C(=O)OC(C(C)=CC=CC(=O)N2CCCCO2)CC=CC=CC(O)C(C)C1O (stereo not shown); cell line = Huh-5-2; assay = MTS; setting = 3 days; CC50 = > 100 µM
Structure (SMILES) = O=C(CCN(CCC(=O)N[C@@H](Cc1c[nH]c2ccccc12)C(=O)O)C(=O)CCN(CCC(=O)N(CCC(=O)N[C@@H](Cc1c[nH]c2ccccc12)C(=O)O)CCC(=O)N[C@@H](Cc1c[nH]c2ccccc12)C(=O)O)C(=O)c1cc(C(=O)N(CCC(=O)N(CCC(=O)N[C@@H](Cc2c[nH]c3ccccc23)C(=O)O)CCC(=O)N[C@@H](Cc2c[nH]c3ccccc23)C(=O)O)CCC(=O)N(CCC(=O)N[C@@H](Cc2c[nH]c3ccccc23)C(=O)O)CCC(=O)N[C@@H](Cc2c[nH]c3ccccc23)C(=O)O)cc(C(=O)N(CCC(=O)N(CCC(=O)N[C@@H](Cc2c[nH]c3ccccc23)C(=O)O)CCC(=O)N[C@@H](Cc2c[nH]c3ccccc23)C(=O)O)CCC(=O)N(CCC(=O)N[C@@H](Cc2c[nH]c3ccccc23)C(=O)O)CCC(=O)N[C@@H](Cc2c[nH]c3ccccc23)C(=O)O)c1)N[C@@H](Cc1c[nH]c2ccccc12)C(=O)O; cell line = RD; CC50 = > 27 µM
Structure (SMILES) = CC(C)C[C@@H]1NC(=O)[C@@H](Cc2c[nH]c3ccccc23)NC(=O)[C@H](CCCCN)NC(=O)[C@@H](Cc2c[nH]cn2)NC(=O)[C@H](CO)NC(=O)[C@@H](Cc2c[nH]cn2)NC(=O)[C@H](CCCCN)NC(=O)[C@@H](Cc2c[nH]c3ccccc23)NC1=O; cell line = SK-OV-3; assay = cytotoxicity; CC50 = 8.5 µM
Structure (SMILES) = CC[C@H](C)[C@@H]1NC(=O)[C@H](CCCCN)NC(=O)[C@H](CCCCN)NC(=O)[C@H](Cc2ccc(O)cc2)NC(=O)[C@H](CC(C)C)NC(=O)[C@@H]2CCCN2C(=O)[C@H](C)NC(=O)CNC(=O)CNC(=O)[C@H](CO)NC(=O)CNC(=O)CNC(=O)[C@H](CO)NC(=O)[C@H]([C@@H](C)O)NC(=O)[C@H](CC(C)C)NC(=O)[C@H](CC(C)C)NC(=O)[C@H](C)NC(=O)[C@H](Cc2c[nH]c3ccccc23)NC(=O)[C@H](Cc2ccc(O)cc2)NC(=O)[C@H](Cc2c[nH]cn2)NC(=O)[C@H](CCC(=O)O)NC(=O)[C@H](Cc2ccccc2)NC(=O)[C@H]([C@@H](C)O)NC(=O)[C@H](CC(C)C)NC(=O)[C@@H]2CCCN2C(=O)CNC(=O)CNC(=O)CSC[C@@H](C(N)=O)NC(=O)[C@H](CC(C)C)NC(=O)[C@H](CCCCN)NC(=O)[C@H](CCCCN)NC(=O)[C@H]([C@@H](C)CC)NC1=O; cell line = human PBMC; assay = cell viability, resazurin; setting = 24 h; CC50 = 20.5 ± 0.8 µM
Structure (SMILES) = CC[C@H](C)[C@H](NC(=O)[C@H](C)NC(=O)[C@H](Cc1ccccc1)NC(=O)[C@H](Cc1cnc[nH]1)NC(=O)[C@@H](NC(=O)[C@H](Cc1ccccc1)NC(=O)[C@H](CC(C)C)NC(=O)[C@H](CC(C)C)NC(=O)[C@H](CCC(N)=O)NC(=O)[C@H](CCC(N)=O)NC(=O)[C@H](CC(C)C)NC(C)=O)[C@@H](C)CC)C(=O)NCC(=O)N[C@@H](CCCNC(=N)N)C(=O)N[C@@H](CCCNC(=N)N)C(=O)N[C@@H](CCCNC(=N)N)C(=O)N[C@@H](CCCNC(=N)N)C(=O)N[C@@H](CCCNC(=N)N)C(=O)N[C@@H](CCCNC(=N)N)C(=O)N[C@@H](CCCNC(=N)N)C(=O)N[C@@H](CCCNC(=N)N)C(N)=O; cell line = MT4 Luc; assay = luciferase signal decrease; CC50 = 10 µM
Structure (SMILES) = COc1cc(O)c2c(c1)/C=C/C[C@H](O)[C@H](O)C(=O)/C=C\C[C@H](C)OC2=O; cell line = Calu-3, infected; assay = alamarBlue; setting = 24 h post infection; CC50 = > 20 µM
Structure (SMILES) = Cc1cc(C)cc([C@@H]2C[C@H]2C(=O)N[C@H](C(=O)NCc2ccccc2)c2ccc(C)c(C)c2)c1; cell line = BHK-21; assay = cell growth or viability, MTT; setting = 24 h; CC50 = > 100 µM
Structure (SMILES) = C=C(C)[C@@H]1CC[C@]2(C(=O)NC(CO)Cc3ccccc3)CC[C@]3(C)[C@H](CC[C@@H]4[C@@]5(C)CCCNC(C)(C)[C@@H]5CC[C@]43C)[C@@H]12 (stereo partly shown); cell line = C-33 A; assay = cell viability, CellTiter-Glo; CC50 = 0.78 µM
Structure (SMILES) = CC[C@H](C)[C@H](NC(=O)[C@H](CCCNC(=N)N)NC(=O)[C@H](C)NC(=O)[C@H](Cc1cnc[nH]1)NC(=O)[C@@H](NC(=O)[C@H](Cc1ccccc1)NC(=O)[C@H](CC(C)C)NC(=O)[C@H](CC(C)C)NC(=O)[C@H](CCC(N)=O)NC(=O)[C@H](CCC(N)=O)NC(=O)[C@H](CC(C)C)NC(C)=O)[C@@H](C)CC)C(=O)NCC(=O)N[C@@H](CCCNC(=N)N)C(=O)N[C@@H](CCCNC(=N)N)C(=O)N[C@@H](CCCNC(=N)N)C(=O)N[C@@H](CCCNC(=N)N)C(=O)N[C@@H](CCCNC(=N)N)C(=O)N[C@@H](CCCNC(=N)N)C(=O)N[C@@H](CCCNC(=N)N)C(=O)N[C@@H](CCCNC(=N)N)C(N)=O; cell line = MT4 Luc; assay = luciferase signal decrease; CC50 = 10 µM
Structure (SMILES) = O=C(CSc1c[nH]c2ccccc12)NCc1ccc(Cl)c(Cl)c1; cell line = HEK293T; assay = cell viability, CCK-8; setting = 24 h; CC50 = 84.2 µM
Structure (SMILES) = C=C(C)[C@@H]1CC[C@]2(CO)CC[C@]3(C)[C@H](CC[C@@H]4[C@@]5(C)CCCNC(C)(C)[C@@H]5CC[C@]43C)[C@@H]12; cell line = primary HFF; assay = cell viability, CellTiter-Glo; setting = HSV-1 assay setting; CC50 = 25.7 µM
Structure (SMILES) = CCN(CC)CCCC(C)Nc1cc[n+]([Ru-]2[NH2+]CC[NH2+]2)c2cc(Cl)ccc12.Cc1ccc(C(C)C)cc1.F[P-](F)(F)(F)(F)F.F[P-](F)(F)(F)(F)F (stereo not shown); cell line = Jurkat; assay = PI flow cytometry; setting = 20 h; CC50 = 86 µM
Structure (SMILES) = C1=[N+]2CCCC[N+]3=Cc4ccc5[n]4[Au-]23[n]2c1ccc2-c1nc2ccccc2nc1-5.F[P-](F)(F)(F)(F)F; cell line = NCI60 human cancer panel; setting = mean of all cell lines; CC50 = 86 µM
Structure (SMILES) = O=C(CCN(CCC(=O)NC(Cc1c[nH]c2ccccc12)C(=O)O)C(=O)CCOCC(COCCC(=O)N(CCC(=O)NC(Cc1c[nH]c2ccccc12)C(=O)O)CCC(=O)NC(Cc1c[nH]c2ccccc12)C(=O)O)(COCCC(=O)N(CCC(=O)NC(Cc1c[nH]c2ccccc12)C(=O)O)CCC(=O)NC(Cc1c[nH]c2ccccc12)C(=O)O)COCCC(=O)N(CCC(=O)NC(Cc1c[nH]c2ccccc12)C(=O)O)CCC(=O)NC(Cc1c[nH]c2ccccc12)C(=O)O)NC(Cc1c[nH]c2ccccc12)C(=O)O (stereo not shown); cell line = RD; setting = 3 (unit not given); CC50 = > 60 µM
Structure (SMILES) = CC[C@H](C)[C@@H]1NC(=O)[C@H](CCCCN)NC(=O)[C@H](CCCCN)NC(=O)[C@H](Cc2ccc(O)cc2)NC(=O)[C@H](CC(C)C)NC(=O)[C@@H]2CCCN2C(=O)[C@H](C)NC(=O)CNC(=O)CNC(=O)[C@H](CO)NC(=O)CNC(=O)CNC(=O)[C@H](CO)NC(=O)[C@H](CCC(=O)O)NC(=O)[C@H](CC(C)C)NC(=O)[C@H](CC(C)C)NC(=O)[C@H](CCCCN)NC(=O)[C@H](CCCCN)NC(=O)[C@H]([C@@H](C)CC)NC(=O)[C@H]([C@@H](C)CC)NC(=O)[C@H](CCCCN)NC(=O)[C@H](CCCCN)NC(=O)[C@H](Cc2ccc(O)cc2)NC(=O)[C@H](CC(C)C)NC(=O)[C@@H]2CCCN2C(=O)CNC(=O)CNC(=O)CSC[C@@H](C(N)=O)NC(=O)[C@H](CC(C)C)NC(=O)[C@H](CCCCN)NC(=O)[C@H](CCCCN)NC(=O)[C@H]([C@@H](C)CC)NC1=O; cell line = human PBMC; assay = cell viability, resazurin; setting = 24 h; CC50 = 5.1 ± 0.6 µM
Structure (SMILES) = CCC(C)SSc1ncc[nH]1 (stereo not shown); cell line = RD; setting = 3 (unit not given), 33 °C, added: MgCl2 30 mM; CC50 = 16.5 µM
Structure (SMILES) = CCOc1cccc(NC(=O)CSc2cn(C(=O)OC(C)(C)C)c3ccccc23)c1; cell line = HEK293T; assay = cell viability, CCK-8; setting = 24 h; CC50 = > 100 µM
Structure (SMILES) = O=C(CCN(CCC(=O)NC(Cc1c[nH]c2ccccc12)C(=O)O)C(=O)c1cc(C(=O)N(CCC(=O)NC(Cc2c[nH]c3ccccc23)C(=O)O)CCC(=O)NC(Cc2c[nH]c3ccccc23)C(=O)O)cc(C(=O)N(CCC(=O)NC(Cc2c[nH]c3ccccc23)C(=O)O)CCC(=O)NC(Cc2c[nH]c3ccccc23)C(=O)O)c1)NC(Cc1c[nH]c2ccccc12)C(=O)O (stereo not shown); cell line = RD; setting = 3 (unit not given); CC50 = > 57 µM
Structure (SMILES) = O=C1CC(c2ccccc2)Oc2ccccc21 (stereo not shown); cell line = Vero E6-GFP; assay = cell viability; setting = 72 h, added: CP-100356 2 µM; CC50 = > 100 µM
Structure (SMILES) = CC(C)C[C@@H]1NC(=O)[C@@H](Cc2c[nH]c3ccccc23)NC(=O)[C@H](CCCN)NC(=O)[C@@H](CO)NC(=O)[C@H](CCC(N)=O)NC(=O)[C@@H](CCC(=O)O)NC(=O)[C@H](CO)NC(=O)[C@@H](Cc2c[nH]c3ccccc23)NC1=O; cell line = SK-OV-3; assay = cytotoxicity; CC50 = > 40 µM

For quick reference, copied from above:
Structure (SMILES) = CC[C@H](C)[C@H](NC(=O)[C@H](CCCNC(=N)N)NC(=O)[C@H](C)NC(=O)[C@H](Cc1cnc[nH]1)NC(=O)[C@@H](NC(=O)[C@H](Cc1ccccc1)NC(=O)[C@H](CC(C)C)NC(=O)[C@H](CC(C)C)NC(=O)[C@H](CCC(N)=O)NC(=O)[C@H](CCC(N)=O)NC(=O)[C@H](CC(C)C)NC(C)=O)[C@@H](C)CC)C(=O)NCC(=O)N[C@@H](CCCNC(=N)N)C(=O)N[C@@H](CCCNC(=N)N)C(=O)N[C@@H](CCCNC(=N)N)C(=O)N[C@@H](CCCNC(=N)N)C(=O)N[C@@H](CCCNC(=N)N)C(=O)N[C@@H](CCCNC(=N)N)C(=O)N[C@@H](CCCNC(=N)N)C(=O)N[C@@H](CCCNC(=N)N)C(N)=O; cell line = MT4 Luc; assay = luciferase signal decrease; CC50 = 10 µM
